Measurements pooled from the literature.
Protocols differ between the studies behind these lines. Values joined by “and” are separate records of one study, mostly repeats; a detail may differ. ± marks the error that the study gave.
agrC: Receptor-histidine kinase AgrC (agrC, Staphylococcus aureus, UniProt O07911)
OPRK1: Kappa-type opioid receptor (OPRK1, Homo sapiens, UniProt P41145)
UniProt P41145, sequence (whole entry, looked up): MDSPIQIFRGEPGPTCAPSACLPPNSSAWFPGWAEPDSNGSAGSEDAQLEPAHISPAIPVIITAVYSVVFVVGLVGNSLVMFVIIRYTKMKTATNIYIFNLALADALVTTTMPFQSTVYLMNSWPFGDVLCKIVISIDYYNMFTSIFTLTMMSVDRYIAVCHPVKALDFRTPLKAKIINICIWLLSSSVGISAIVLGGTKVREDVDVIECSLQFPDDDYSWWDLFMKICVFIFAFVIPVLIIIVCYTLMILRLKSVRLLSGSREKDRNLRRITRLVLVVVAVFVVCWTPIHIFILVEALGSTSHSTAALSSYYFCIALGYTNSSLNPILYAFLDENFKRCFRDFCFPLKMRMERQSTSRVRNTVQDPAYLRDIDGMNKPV
GPR139: Probable G-protein coupled receptor 139 (GPR139, Homo sapiens, UniProt Q6DWJ6)
UniProt Q6DWJ6, sequence (whole entry, looked up): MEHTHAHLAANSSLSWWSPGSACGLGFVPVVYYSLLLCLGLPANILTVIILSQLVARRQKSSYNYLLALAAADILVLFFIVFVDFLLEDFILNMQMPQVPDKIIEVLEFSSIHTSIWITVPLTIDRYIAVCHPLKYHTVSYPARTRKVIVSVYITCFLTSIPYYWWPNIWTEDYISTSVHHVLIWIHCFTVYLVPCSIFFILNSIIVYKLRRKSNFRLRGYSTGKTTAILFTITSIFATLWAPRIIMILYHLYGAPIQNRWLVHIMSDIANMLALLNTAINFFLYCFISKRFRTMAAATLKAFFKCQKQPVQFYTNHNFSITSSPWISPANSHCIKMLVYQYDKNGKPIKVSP
UniProt Q01726, sequence (whole entry, looked up): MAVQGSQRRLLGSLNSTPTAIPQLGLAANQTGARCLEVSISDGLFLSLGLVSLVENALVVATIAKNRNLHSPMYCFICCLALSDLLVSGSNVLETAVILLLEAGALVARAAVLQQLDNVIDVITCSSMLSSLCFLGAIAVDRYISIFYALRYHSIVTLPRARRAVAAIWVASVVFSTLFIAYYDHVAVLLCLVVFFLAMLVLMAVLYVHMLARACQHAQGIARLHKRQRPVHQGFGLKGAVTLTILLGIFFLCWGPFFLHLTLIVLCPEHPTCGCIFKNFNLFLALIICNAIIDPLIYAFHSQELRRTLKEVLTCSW
UniProt P46098, sequence (whole entry, looked up): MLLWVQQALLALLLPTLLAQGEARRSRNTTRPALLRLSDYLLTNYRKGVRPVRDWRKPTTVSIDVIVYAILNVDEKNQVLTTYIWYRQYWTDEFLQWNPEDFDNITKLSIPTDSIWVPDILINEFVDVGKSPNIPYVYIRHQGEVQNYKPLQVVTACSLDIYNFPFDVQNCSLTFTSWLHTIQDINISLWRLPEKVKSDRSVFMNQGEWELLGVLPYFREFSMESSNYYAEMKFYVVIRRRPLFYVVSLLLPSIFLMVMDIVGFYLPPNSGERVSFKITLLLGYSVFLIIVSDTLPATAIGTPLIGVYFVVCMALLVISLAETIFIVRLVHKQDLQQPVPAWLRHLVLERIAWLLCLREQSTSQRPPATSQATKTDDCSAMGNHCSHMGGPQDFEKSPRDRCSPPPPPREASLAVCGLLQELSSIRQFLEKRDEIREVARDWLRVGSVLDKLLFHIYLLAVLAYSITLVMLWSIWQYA
UniProt Q96NY8, sequence (whole entry, looked up): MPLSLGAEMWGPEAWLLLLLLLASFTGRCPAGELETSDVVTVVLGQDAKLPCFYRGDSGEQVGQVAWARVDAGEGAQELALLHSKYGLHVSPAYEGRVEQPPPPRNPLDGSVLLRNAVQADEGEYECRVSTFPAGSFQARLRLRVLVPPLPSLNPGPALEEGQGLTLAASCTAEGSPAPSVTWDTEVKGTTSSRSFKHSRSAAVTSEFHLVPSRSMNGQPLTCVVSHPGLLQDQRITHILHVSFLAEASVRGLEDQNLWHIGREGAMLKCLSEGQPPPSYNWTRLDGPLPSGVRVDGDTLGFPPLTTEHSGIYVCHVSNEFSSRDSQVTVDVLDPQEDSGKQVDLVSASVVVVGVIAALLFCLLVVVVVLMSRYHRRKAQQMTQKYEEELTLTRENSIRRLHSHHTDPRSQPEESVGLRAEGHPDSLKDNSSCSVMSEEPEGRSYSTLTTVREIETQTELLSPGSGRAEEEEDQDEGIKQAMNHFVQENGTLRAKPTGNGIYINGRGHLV
UniProt Q704Y3, sequence (whole entry, unmodified, looked up): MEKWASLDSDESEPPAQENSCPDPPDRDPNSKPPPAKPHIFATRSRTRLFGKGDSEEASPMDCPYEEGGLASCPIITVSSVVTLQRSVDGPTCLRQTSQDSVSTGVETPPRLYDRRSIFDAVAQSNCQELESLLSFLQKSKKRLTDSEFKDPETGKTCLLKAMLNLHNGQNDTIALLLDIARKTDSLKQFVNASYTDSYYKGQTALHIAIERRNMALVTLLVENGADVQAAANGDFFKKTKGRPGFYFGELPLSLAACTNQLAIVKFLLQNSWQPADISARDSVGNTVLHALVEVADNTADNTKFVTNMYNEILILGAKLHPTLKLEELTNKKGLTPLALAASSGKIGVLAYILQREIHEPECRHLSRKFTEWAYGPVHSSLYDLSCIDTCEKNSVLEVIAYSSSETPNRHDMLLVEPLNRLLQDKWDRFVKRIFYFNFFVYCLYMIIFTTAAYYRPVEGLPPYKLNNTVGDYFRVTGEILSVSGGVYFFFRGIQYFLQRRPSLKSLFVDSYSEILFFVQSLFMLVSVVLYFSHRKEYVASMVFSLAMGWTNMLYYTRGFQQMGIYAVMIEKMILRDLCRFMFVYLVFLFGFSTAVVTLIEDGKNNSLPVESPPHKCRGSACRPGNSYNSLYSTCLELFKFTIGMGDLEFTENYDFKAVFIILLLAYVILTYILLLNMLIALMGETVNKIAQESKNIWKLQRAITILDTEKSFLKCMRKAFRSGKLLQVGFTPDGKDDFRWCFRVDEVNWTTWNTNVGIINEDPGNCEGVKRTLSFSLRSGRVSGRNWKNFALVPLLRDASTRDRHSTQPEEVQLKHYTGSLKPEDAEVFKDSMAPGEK
UniProt P41143, sequence (whole entry, looked up): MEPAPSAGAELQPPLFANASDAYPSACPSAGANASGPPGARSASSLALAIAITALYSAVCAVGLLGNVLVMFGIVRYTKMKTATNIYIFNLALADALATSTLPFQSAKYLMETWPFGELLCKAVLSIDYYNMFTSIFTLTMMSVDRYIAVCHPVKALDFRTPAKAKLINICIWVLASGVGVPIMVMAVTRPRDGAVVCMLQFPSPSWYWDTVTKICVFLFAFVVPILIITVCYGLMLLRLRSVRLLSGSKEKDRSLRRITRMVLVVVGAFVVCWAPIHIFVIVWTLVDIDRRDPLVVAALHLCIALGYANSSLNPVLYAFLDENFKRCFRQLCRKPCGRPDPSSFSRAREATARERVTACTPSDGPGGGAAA
UniProt Q16581, sequence (whole entry, looked up): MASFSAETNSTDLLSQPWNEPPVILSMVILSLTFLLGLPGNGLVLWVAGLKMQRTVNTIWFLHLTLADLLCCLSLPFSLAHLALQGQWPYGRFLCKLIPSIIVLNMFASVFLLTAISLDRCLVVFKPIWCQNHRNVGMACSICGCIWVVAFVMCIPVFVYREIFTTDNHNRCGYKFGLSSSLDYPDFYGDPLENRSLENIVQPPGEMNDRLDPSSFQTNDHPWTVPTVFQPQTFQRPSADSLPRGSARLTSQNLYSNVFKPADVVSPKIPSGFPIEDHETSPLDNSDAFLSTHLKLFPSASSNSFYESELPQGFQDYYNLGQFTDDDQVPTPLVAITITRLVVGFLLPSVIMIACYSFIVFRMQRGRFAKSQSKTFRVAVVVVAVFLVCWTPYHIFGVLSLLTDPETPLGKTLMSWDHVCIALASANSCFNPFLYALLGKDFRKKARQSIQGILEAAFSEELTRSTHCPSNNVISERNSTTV
UniProt Q9UKP6, sequence (whole entry, unmodified, looked up): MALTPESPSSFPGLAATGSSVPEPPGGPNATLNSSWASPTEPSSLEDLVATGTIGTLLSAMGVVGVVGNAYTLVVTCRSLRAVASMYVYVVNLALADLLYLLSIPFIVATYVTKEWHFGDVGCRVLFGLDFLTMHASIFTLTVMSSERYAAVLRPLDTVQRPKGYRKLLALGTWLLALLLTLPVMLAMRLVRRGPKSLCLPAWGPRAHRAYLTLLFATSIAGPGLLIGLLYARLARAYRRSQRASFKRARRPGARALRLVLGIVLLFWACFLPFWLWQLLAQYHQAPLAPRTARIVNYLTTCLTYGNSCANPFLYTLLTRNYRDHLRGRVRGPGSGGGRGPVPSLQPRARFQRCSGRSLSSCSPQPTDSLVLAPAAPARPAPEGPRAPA
UniProt P34972, sequence (whole entry, looked up): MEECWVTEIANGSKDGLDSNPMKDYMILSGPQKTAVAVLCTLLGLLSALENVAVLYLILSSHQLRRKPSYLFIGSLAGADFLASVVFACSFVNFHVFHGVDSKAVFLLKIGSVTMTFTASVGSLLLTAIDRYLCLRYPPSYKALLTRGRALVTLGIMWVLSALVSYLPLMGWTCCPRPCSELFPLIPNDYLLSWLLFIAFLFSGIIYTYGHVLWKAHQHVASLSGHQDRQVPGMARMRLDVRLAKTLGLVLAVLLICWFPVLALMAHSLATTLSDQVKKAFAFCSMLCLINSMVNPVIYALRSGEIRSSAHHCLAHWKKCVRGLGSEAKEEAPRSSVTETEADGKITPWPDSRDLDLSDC
UniProt Q07011, sequence (whole entry, looked up): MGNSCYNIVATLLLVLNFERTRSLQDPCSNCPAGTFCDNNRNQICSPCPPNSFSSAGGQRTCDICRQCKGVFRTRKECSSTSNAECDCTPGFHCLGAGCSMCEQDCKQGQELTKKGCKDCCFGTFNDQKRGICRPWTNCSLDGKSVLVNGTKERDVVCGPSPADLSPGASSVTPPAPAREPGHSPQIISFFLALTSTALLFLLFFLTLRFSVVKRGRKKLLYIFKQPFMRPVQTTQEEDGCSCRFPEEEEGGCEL

CCCC[C@@H]1NC(=O)[C@H](Cc2ccc(O)cc2)NC(=O)[C@@H]2CCCN2C(=O)[C@H](CC(=O)O)NC(=O)[C@H](C)NC(=O)[C@H](Cc2ccccc2)NC(=O)[C@@H]2CSCCC(=O)N3CN(CN(C3)C(=O)CCSC[C@@H](C(=O)N[C@@H](CNC(=O)CCOCCOCCOCCN(CCOCCOCCOCCn3cc(CCC(=O)NCCC(=O)N[C@H]4CSCCC(=O)N5CN6CN(C5)C(=O)CCSC[C@H](NC(=O)[C@@H](CC(=O)O)NC(=O)[C@H](Cc5cccc7ccccc57)NC(=O)[C@@H]5CCCN5C4=O)C(=O)N[C@@H](CCSC)C(=O)N[C@@H](CCCCNC(=N)N)C(=O)N[C@@H](CC(=O)O)C(=O)N[C@@H](Cc4c[nH]c5ccccc45)C(=O)N[C@@H](CO)C(=O)N[C@@H]([C@@H](C)O)C(=O)N4CCC[C@H]4C(=O)N4C[C@H](O)C[C@H]4C(=O)N[C@@H](Cc4c[nH]c5ccccc45)C(=O)N[C@H](C(N)=O)CSCCC6=O)nn3)CCOCCOCCOCCn3cc(CCC(=O)NCCC(=O)N[C@H]4CSCCC(=O)N5CN6CN(C5)C(=O)CCSC[C@H](NC(=O)[C@@H](CC(=O)O)NC(=O)[C@H](Cc5cccc7ccccc57)NC(=O)[C@@H]5CCCN5C4=O)C(=O)N[C@@H](CCSC)C(=O)N[C@@H](CCCCNC(=N)N)C(=O)N[C@@H](CC(=O)O)C(=O)N[C@@H](Cc4c[nH]c5ccccc45)C(=O)N[C@@H](CO)C(=O)N[C@@H]([C@@H](C)O)C(=O)N4CCC[C@H]4C(=O)N4C[C@H](O)C[C@H]4C(=O)N[C@@H](Cc4c[nH]c5ccccc45)C(=O)N[C@H](C(N)=O)CSCCC6=O)nn3)C(N)=O)NC1=O)C(=O)CCSC[C@H](NC(C)=O)C(=O)N[C@@H](CC(C)(C)C)C(=O)N1CCC[C@H]1C(=O)N[C@@H](CCC(=O)O)C(=O)N[C@H](C)C(=O)N1CCC[C@H]1C(=O)N[C@@H](Cc1ccc(O)cc1)C(=O)N2 — EC50 (Tumor necrosis factor receptor superfamily member 9/Nectin-4 (Homo sapiens, UniProt Q07011+Q96NY8); reporter gene, agonist; HT-1376 coculture with reporter cells): 1.56 nM
CC[C@H](C)[C@@H]1NC(=O)[C@H](Cc2ccccc2)NC(=O)[C@H](CC(=O)O)NC(=O)[C@@H](NC(=O)[C@@H](NC(=O)[C@H](CO)NC(=O)[C@@H](N)Cc2ccc(O)cc2)[C@@H](C)O)CSC(=O)C[C@H](CCSC)NC1=O — EC50 (agrC; Staphylococcus aureus cells): > 10000 nM
CC(C)C[C@H](NC(=O)CNC(=O)[C@H](CCC(N)=O)NC(=O)[C@H](CC(C)C)NC(=O)[C@H](CC(C)C)NC(=O)[C@H](CCCNC(=N)N)NC(=O)[C@H](CCC(N)=O)NC(=O)[C@H](CC(C)C)NC(=O)[C@H](CCCNC(=N)N)NC(=O)[C@H](C)NC(=O)[C@H](CO)NC(=O)[C@H](CC(=O)O)NC(=O)[C@H](CCC(N)=O)NC(=O)[C@H](CC(C)C)NC(=O)[C@H](CCCNC(=N)N)NC(=O)[C@H](CO)NC(=O)[C@H](Cc1ccc(O)cc1)NC(=O)[C@H](CCC(=O)O)NC(=O)[C@H](CO)NC(=O)[C@@H](NC(=O)[C@H](Cc1ccccc1)NC(=O)[C@@H](NC(=O)[C@H](Cc1ccc(C(=O)c2ccccc2)cc1)NC(=O)[C@H](CC(=O)O)NC(=O)[C@H](CO)NC(=O)[C@@H](N)Cc1c[nH]cn1)[C@@H](C)O)[C@@H](C)O)C(=O)N[C@H](C(N)=O)C(C)C — EC50 (Sctr (Rattus norvegicus, UniProt P23811); agonist): > 1000 nM
CC(C)[C@H](NC(=O)[C@@H]1CSSC(C)(C)[C@H](NC(=O)[C@@H](N)CC(=O)O)C(=O)N[C@@H](Cc2ccccc2)C(=O)N[C@@H](Cc2c[nH]c3ccccc23)C(=O)N[C@@H](CCCCN)C(=O)N[C@@H](Cc2ccc(O)cc2)C(=O)N1)C(=O)O — EC50 (UTS2R (Homo sapiens, UniProt Q9UKP6, F127A); IP1 accumulation, agonist, HTRF; HEK293T; 1 h, 37 °C, F127A mutant, 3.29): 2.51 nM
CC[C@H](C)[C@@H]1NC(=O)[C@H](Cc2ccccc2)NC(=O)C[C@H](CC(=O)O)NC(=O)[C@@H](NC(=O)[C@@H](NC(=O)[C@H](CO)NC(=O)[C@@H](N)Cc2ccc(O)cc2)[C@@H](C)O)CSC(=O)[C@H](CCSC)NC1=O — EC50 (agrC; Staphylococcus aureus cells): ~800 nM and 809 nM
CCCCC/C=C\C/C=C\C/C=C\C/C=C\CCCC(=O)NCCc1ccc(O)c(O)c1 — EC50 (Trpv1 (Mus musculus, UniProt Q704Y3, N552Q); ion current, agonist, whole-cell patch clamp; 24 °C, N552Q, +80 mV): 60 ± 20 nM
O=C(Cc1ccc(Cl)c(Cl)c1)N1CCNC2COCC(N3CCCC3)C21 (centres unmarked) — EC50 (OPRK1): 25 ± 2.8 nM
O=C(O)CCn1c(=O)oc2cc(Cl)c(Cl)cc21 — EC50 (HTR3A (Homo sapiens, UniProt P46098); opener; median): > 50100 nM
CCn1ccc(-c2cc([C@@H](C)NC(=O)c3cc(N4CCN(C)CC4)ccc3C)c3ccccc3n2)n1 — viability (Vero E6; 31.25 µM): 19.5% and 38.2% and 25.6%
Cc1cc(C(c2ccc(Cl)cc2)c2ccc(Cl)cc2)sc1C(=O)N[C@@H](CCCNC(=N)N)C(=O)O — EC50 (C3AR1 (Homo sapiens, UniProt Q16581); GoA dissociation, agonist, NanoBiT G-protein): 2.88 nM
O=C1NC2(CC2)COc2ncc(F)cc2[C@H]2COCCN2c2ccn3ncc1c3n2 — organ-to-body weight ratio (Sprague-Dawley rat, male, kidneys; oral, 20 mg/kg/day, 4 weeks, end of treatment): 0.754 ± 0.11%
CC[C@H](C)[C@@H]1NC(=O)[C@H](CC(=O)O)NC(=O)[C@@H](NC(=O)[C@@H](NC(=O)[C@H](CO)NC(=O)[C@@H](N)Cc2ccc(O)cc2)[C@@H](C)O)CSC(=O)[C@H](CCSC)NC1=O — EC50 (agrC; Staphylococcus aureus cells): > 10000 nM
CC[C@H](C)[C@H](NC(=O)[C@H](Cc1ccccc1)NC(=O)[C@H](CCC(=O)O)NC(=O)[C@H](CCCNC(=N)N)NC(=O)[C@@H](NC(=O)[C@H](C)NC(=O)[C@H](CCC(=O)O)NC(=O)[C@H](CCC(=O)O)NC(=O)[C@H](CCC(=O)O)NC(=O)[C@H](CC(C)C)NC(=O)[C@H](Cc1ccc(O)cc1)NC(=O)[C@H](CCCCN)NC(=O)[C@H](CO)NC(=O)[C@H](CC(C)C)NC(=O)[C@H](CC(=O)O)NC(=O)[C@H](CO)NC(=O)[C@@H](NC(=O)[C@H](Cc1ccccc1)NC(=O)[C@@H](NC(=O)CNC(=O)[C@H](CCC(N)=O)NC(=O)[C@@H](CO)NC(=O)[C@@H](N)Cc1c[nH]cn1)[C@@H](C)O)[C@@H](C)O)C(C)C)C(=O)N[C@@H](C)C(=O)N[C@@H](Cc1c[nH]c2ccccc12)C(=O)N[C@@H](CC(C)C)C(=O)N[C@@H](CCCCN)C(=O)N[C@@H](CC(N)=O)C(=O)NCC(=O)NCC(=O)N1CCC[C@H]1C(=O)N[C@@H](CO)C(=O)N[C@@H](Cc1ccc(O)cc1)C(=O)N[C@@H](CO)C(=O)N[C@@H](CCSC)C(=O)N[C@@H](CCC(=O)O)C(=O)N[C@@H](Cc1c[nH]cn1)C(=O)N[C@@H](Cc1ccccc1)C(=O)N[C@@H](CCCNC(=N)N)C(=O)N[C@@H](Cc1c[nH]c2ccccc12)C(=O)NCC(=O)N[C@@H](CCCCN)C(=O)N1CCC[C@H]1C(=O)N[C@H](C(N)=O)C(C)C — EC50 (MC1R (Homo sapiens, UniProt Q01726); cAMP, agonist, TR-FRET): 14.7 nM
CC(C)C[C@H](NC(=O)[C@H](Cc1ccccc1)NC(=O)CNC(=O)CNC(=O)[C@@H](N)Cc1ccc(O)cc1)C(=O)N[C@@H](CCCN=C(N)N)C(=O)N[C@@H](CCCN=C(N)N)C(=O)N[C@@H](CCC(N)=O)C(=O)N[C@@H](Cc1ccccc1)C(=O)N[C@@H](CCCCN)C(=O)N[C@H](C(=O)N[C@H](C(=O)N[C@H](C(=O)O)[C@@H](C)O)C(C)C)C(C)C — EC50 (GPR139; calcium response, agonist, BRET; HEK293T/17, transfected): 25900 ± 1880 nM
O=C(Cc1ccc(Cl)c(Cl)c1)N1CCN(Cc2ccccc2)[C@@H]2CCC[C@H](N3CCCC3)[C@H]21 (relative stereo) — EC50 (OPRK1): 140 ± 10 nM
CC(C)C[C@H](NC(=O)[C@H](Cc1ccccc1)NC(=O)CNC(=O)CNC(=O)[C@@H](N)Cc1ccc(O)cc1)C(=O)N[C@@H](CCCNC(=N)N)C(=O)N[C@@H](CCCCN)C(=O)N[C@@H](Cc1ccc(O)cc1)C(=O)N1CCC[C@H]1C(=O)N[C@@H](CCCCN)C(=O)O — EC50 (GPR139; calcium response, agonist, BRET; HEK293T/17, transfected): 44600 ± 13100 nM
C[C@]12CC[C@H]3[C@@H](CC[C@H]4C[C@H](O)CC[C@@]43C)[C@@H]1CC(=O)C2 — EC50 (GABA-A receptor; GABA-A site (alpha1/beta2 interface) (Homo sapiens, UniProt P14867+P47870)): 22000 nM
Cc1ccc(OCC2CN(C)C2)cc1C(=O)N[C@H](C)c1cc(-c2cnn(C)c2)nc2ccccc12 — viability (Vero E6; 125 µM): 4.46% and 6.96% and 3.21%
Cc1cc(O)cc(C)c1C[C@H](N)C(=O)N[C@H](CCCNC(=N)N)C(=O)N[C@@H](Cc1ccccc1)C(=O)N(C)CC(=O)N(C)Cc1cc(C(F)(F)F)cc(C(F)(F)F)c1 — EC50 (OPRD1 (Homo sapiens, UniProt P41143); β-arrestin recruitment, agonist): 52.6 nM
CCCCCn1ccc(C(=O)N[C@H](C(N)=O)C(C)C)n1 — EC50 (CNR2 (Homo sapiens, UniProt P34972); calcium signal, agonist): > 10000 nM

Excerpt of the above:
CC[C@H](C)[C@@H]1NC(=O)[C@H](Cc2ccccc2)NC(=O)[C@H](CC(=O)O)NC(=O)[C@@H](NC(=O)[C@@H](NC(=O)[C@H](CO)NC(=O)[C@@H](N)Cc2ccc(O)cc2)[C@@H](C)O)CSC(=O)C[C@H](CCSC)NC1=O — EC50 (agrC; Staphylococcus aureus cells): > 10000 nM
